Assay results of several laboratories.
Numbered parts are unrelated; each lists some results of a single study.
UniProt Q96L34, sequence (whole entry, looked up): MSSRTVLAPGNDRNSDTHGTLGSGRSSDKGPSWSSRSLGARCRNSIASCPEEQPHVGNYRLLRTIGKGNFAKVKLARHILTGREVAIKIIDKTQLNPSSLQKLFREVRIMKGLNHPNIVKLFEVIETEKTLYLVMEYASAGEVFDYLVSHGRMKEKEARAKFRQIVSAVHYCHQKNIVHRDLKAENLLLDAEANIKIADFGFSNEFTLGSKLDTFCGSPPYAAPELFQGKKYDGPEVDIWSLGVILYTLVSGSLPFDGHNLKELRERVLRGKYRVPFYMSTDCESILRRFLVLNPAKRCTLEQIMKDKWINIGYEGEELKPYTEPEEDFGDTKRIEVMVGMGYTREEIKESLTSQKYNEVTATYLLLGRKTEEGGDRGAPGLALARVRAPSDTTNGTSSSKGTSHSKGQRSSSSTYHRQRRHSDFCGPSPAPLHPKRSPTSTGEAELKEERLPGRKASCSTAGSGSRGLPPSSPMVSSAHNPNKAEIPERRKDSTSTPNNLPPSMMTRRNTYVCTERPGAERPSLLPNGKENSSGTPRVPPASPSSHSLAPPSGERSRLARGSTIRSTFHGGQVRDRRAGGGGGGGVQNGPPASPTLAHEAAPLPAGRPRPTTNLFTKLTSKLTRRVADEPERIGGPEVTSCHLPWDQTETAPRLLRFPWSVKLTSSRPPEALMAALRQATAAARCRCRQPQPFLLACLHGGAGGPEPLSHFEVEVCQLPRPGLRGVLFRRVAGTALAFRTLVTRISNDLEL
UniProt Q16584, sequence (whole entry, looked up): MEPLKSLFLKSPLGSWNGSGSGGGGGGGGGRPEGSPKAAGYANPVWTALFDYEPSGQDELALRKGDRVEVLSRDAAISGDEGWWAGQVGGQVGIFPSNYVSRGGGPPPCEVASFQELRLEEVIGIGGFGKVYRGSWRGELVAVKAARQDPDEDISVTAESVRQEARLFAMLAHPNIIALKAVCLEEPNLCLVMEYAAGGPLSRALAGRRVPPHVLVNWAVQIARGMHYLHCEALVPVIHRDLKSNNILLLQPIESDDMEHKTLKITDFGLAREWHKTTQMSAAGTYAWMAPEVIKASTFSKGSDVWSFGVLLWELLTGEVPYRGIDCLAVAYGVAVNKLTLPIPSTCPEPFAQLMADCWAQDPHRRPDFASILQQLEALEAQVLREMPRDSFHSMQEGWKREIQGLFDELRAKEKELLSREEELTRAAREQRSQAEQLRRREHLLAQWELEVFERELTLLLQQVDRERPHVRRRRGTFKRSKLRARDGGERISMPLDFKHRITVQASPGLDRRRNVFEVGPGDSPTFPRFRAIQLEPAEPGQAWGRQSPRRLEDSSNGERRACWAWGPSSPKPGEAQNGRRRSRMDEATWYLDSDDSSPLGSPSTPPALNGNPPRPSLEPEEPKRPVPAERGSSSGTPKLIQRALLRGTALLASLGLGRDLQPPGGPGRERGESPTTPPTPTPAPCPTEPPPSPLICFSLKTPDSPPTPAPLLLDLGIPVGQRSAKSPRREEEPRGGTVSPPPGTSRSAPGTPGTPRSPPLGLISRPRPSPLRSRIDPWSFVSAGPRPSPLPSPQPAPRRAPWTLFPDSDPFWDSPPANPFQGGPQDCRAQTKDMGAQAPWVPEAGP
UniProt Q9HCP0, sequence (whole entry, looked up): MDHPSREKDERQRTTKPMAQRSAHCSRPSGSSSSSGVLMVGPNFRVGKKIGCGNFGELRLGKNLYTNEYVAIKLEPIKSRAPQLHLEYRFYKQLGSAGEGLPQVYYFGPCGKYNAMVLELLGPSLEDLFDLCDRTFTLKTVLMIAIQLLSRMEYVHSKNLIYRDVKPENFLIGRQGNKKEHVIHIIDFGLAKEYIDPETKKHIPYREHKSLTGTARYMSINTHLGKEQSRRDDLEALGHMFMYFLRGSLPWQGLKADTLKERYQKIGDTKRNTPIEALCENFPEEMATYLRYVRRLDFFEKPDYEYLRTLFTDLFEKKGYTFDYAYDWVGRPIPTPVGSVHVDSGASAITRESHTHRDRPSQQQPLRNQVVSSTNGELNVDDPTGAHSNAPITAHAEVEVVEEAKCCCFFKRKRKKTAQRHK
UniProt O14757, sequence (whole entry, looked up): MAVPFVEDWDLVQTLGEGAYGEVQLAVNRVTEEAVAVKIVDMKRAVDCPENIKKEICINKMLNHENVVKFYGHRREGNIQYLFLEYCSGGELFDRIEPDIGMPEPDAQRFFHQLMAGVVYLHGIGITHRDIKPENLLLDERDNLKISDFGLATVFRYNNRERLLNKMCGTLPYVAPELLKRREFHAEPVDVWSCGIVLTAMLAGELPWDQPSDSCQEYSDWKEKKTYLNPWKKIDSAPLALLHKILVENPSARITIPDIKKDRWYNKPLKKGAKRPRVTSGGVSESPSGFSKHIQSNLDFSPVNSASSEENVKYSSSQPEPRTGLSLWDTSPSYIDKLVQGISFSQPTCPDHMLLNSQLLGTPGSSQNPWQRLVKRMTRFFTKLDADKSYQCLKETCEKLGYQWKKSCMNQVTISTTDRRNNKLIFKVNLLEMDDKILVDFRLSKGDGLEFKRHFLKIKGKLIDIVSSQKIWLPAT

Set 1
Target: Proto-oncogene tyrosine-protein kinase receptor Ret (RET, Homo sapiens, UniProt P07949)
UniProt P07949, sequence (whole entry, looked up): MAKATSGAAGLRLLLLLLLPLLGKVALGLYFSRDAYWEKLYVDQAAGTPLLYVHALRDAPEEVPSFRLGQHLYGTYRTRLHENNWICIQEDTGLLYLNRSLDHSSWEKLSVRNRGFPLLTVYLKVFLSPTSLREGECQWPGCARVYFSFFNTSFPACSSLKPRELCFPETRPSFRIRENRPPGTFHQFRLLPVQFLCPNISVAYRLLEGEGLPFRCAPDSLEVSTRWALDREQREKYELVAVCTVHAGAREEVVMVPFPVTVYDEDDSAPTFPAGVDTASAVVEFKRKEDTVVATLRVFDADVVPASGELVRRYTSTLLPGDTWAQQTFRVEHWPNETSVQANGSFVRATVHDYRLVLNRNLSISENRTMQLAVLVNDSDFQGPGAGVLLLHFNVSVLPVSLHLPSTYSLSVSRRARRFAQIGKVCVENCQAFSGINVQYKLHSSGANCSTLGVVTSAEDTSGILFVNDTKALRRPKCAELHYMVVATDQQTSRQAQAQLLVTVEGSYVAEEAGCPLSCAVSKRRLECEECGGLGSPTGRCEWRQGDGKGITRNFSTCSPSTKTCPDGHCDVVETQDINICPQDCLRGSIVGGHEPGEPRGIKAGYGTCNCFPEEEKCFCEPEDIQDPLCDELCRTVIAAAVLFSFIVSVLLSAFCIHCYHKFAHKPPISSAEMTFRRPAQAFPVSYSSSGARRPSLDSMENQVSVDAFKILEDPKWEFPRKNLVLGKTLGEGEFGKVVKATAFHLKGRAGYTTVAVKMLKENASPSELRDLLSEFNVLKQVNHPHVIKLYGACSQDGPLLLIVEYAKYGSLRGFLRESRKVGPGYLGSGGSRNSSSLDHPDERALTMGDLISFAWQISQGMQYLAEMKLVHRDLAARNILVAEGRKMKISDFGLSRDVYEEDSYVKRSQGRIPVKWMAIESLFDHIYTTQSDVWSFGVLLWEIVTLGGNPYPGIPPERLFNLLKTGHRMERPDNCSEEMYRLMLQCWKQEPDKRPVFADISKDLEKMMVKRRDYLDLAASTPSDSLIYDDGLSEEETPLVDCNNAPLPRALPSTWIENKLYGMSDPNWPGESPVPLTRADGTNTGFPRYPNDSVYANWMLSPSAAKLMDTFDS
Observed: enzyme activity
Mode: inhibitor
Concentration: 0.5 µM
Baseline: control
SMILES | remaining activity [%]
COc1ccc2c(c1)c(C1=C(c3c[nH]c4ccccc34)C(=O)NC1=O)cn2CCCN(C)C | 79.9
O=C(O)/C=C/c1cc(Br)c(Br)c(Br)c1Br | 76.4
O=C(c1ccccc1)c1ccc(N2CCOCC2)cc1O | 97.8
Oc1cccc(-c2nc(N3CCOCC3)c3oc4ncccc4c3n2)c1 | 99.8
NC(=O)c1ccc(-c2nc(-c3ccc4c(c3)OCCO4)c(-c3ccccn3)[nH]2)cc1 | 97
COc1cccc(-c2cc(=O)c3ccccc3o2)c1N | 107
O=C(c1cc2cc(O)ccc2[nH]1)c1cc2cc(O)ccc2[nH]1 | 8.98
Nc1nc(Nc2ccc(S(N)(=O)=O)cc2)nn1C(=S)Nc1c(F)cccc1F | 3.09
O=C1Nc2ccc(Br)cc2/C1=C/c1cc2c([nH]1)CCCC2 | 42.9
O=C1c2ccccc2-c2nc3nnnn3nc21 | 101
CNc1cc2c(Nc3cccc(Br)c3)ncnc2cn1 | 78.5
CCCNC(=O)Nc1ccc(Oc2ncnc3cc(OC)c(OC)cc23)cc1Cl | 8.42
CCCCc1c(-c2ccc(OC)cc2)[nH]c2nccnc12 | 56.3

Set 2
Target: Cellular tumor antigen p53, full length (TP53, Homo sapiens, UniProt P04637, residues 1-393)
Method: protein-binding microarray
Molecule type: hairpin DNA
Sample: in vitro
Concentration: not given
Notes: whole hairpin DNA, median over replicate spots
Baseline: not given
Reading: higher = stronger binding
Oligonucleotide | median fluorescence [a.u.]
CCACACGTGGCGGCATGCCTTCCTAGGCATGCCGCCACGTGTGGACACTC (5mC at 11) | 6960
CGGACCTGCCCGGGCATGTCTCCTGACATGCCCGGGCAGGTCCGACACTC | 14800
CGGACATCCCCGGGCATGTCTCCTGACATGCCCGGGGATGTCCGACACTC (5mC at 8) | 11000
CGGACATGCCCGGGCATGTCTCCTGACATGCCCGGGCATGTCCGACACTC (5mC at 9) | 21300
CCACCGGTGGTGGCATGCCTTCCTAGGCATGCCACCACCGGTGGACACTC | 6990
CGGACAAGCCCGGGCATGTCTCCTGACATGCCCGGGCTTGTCCGACACTC | 20200
CCACACGTGGTGGCCTGCCTTCCTAGGCAGGCCACCACGTGTGGACACTC | 3910
CGGACATGCCCAGGCATGTCTCCTGACATGCCTGGGCATGTCCGACACTC | 18800

Set 3
SMILES: O=C(O)[C@@H]1[C@@H](Cn2nnc3ccccc3c2=O)CC[C@H]1C(=O)c1ccc(OCCC2CCOCC2)cc1
Observed: cell-free assay
Method: competition with immobilised ligand
Concentration: 1 µM
target | remaining binding
Proto-oncogene tyrosine-protein kinase receptor Ret (RET, Homo sapiens, UniProt P07949) | 100%
Serine/threonine-protein kinase Chk1 (CHEK1, Homo sapiens, UniProt O14757) | 100%
Receptor-type tyrosine-protein kinase FLT3 (FLT3, Homo sapiens, UniProt P36888, R834Q) | 100%
Mitogen-activated protein kinase kinase kinase 11 (MAP3K11, Homo sapiens, UniProt Q16584) | 92%
Casein kinase I isoform gamma-1 (CSNK1G1, Homo sapiens, UniProt Q9HCP0) | 99%
MAP/microtubule affinity-regulating kinase 4 (MARK4, Homo sapiens, UniProt Q96L34) | 100%

Mixed results
Substance | partner | test | system | setting | measurement | result
HADHA (Homo sapiens, UniProt P40939) | ATP5ME (Homo sapiens, UniProt P56385) | cross-linking MS | cells | together with: BSPNO | cross-linked residues | K625 to M1
